Earlier results that unrelated publications cite.
Numbers after ± are the reported error.

`O=C1NCN(c2ccccc2)C12CCN(CCCC(c1ccc(F)cc1)c1ccc(F)cc1)CC2` has an EC50 of 7.48 µM (MERS-CoV; viral replication, ELISA; Vero E6).
`C[C@@H]1CCO[C@H]2Cn3cc(C(=O)NCc4ccc(F)cc4F)c(=O)c(O)c3C(=O)N12` gave an EC50 of 0.013 ± 0.005 µM (HIV-1; viral replication; integrase G118R mutant).
The EC50 of `Cn1c(Cn2ccc(C(F)(F)F)c(Oc3cc(Cl)cc(C#N)c3)c2=O)n[nH]c1=O` is reported as 0.0374 ± 0.0152 µM (HIV-1; viral replication; MT-4, E138K mutant).
The IC50 of `Nc1nc2nc[nH]c2c(=S)[nH]1` is reported as over 60 µM (Replicase polyprotein 1ab, papain-like protease (rep, Severe acute respiratory syndrome coronavirus 2, UniProt P0DTD1); FlipGFP cell-based).
The EC50 of `CN(C)CCCN1c2ccccc2Sc2ccc(C(F)(F)F)cc21` is reported as 6.4 µM (SARS-CoV; cytopathic effect; Vero E6).
`CN(C)C(=S)SSC(=S)N(C)C` has an inhibition of 22.4% (SARS-CoV-2; cytopathic effect; Caco-2; 10 µM).
The CC50 of `CC(C)(C)[C@H](NC(=O)C(F)(F)F)C(=O)N1C[C@H]2[C@@H]([C@H]1C(=O)N[C@H](C#N)C[C@@H]1CCNC1=O)C2(C)C` is reported as over 100 µM (Calu-3; cytotoxicity).
`C=C[C@@H]1C[C@]1(NC(=O)[C@@H]1C[C@@H]2CN1C(=O)[C@H](C(C)(C)C)NC(=O)O[C@@H]1C[C@H]1CCCCCc1nc3ccc(OC)cc3nc1O2)C(=O)NS(=O)(=O)C1CC1` gave an IC50 of 10.8 µM (SARS-CoV-2; viral replication; Vero E6).
